# Measured values gathered from unrelated publications.
# Lines come from different studies, so protocols differ. Numbers after ± are the reported error.
Structure (SMILES),tested on,test,test system,setting,how to read,quantity,result
NC(=O)CC[C@@H]1NC(=O)[C@H](Cc2ccccc2)NC(=O)[C@H](Cc2ccc(O)cc2)NC(=O)[C@@H](N)CSSC[C@@H](C(=O)N2CCC[C@H]2C(=O)N[C@@H](CCCN=C(N)N)C(=O)NCC(N)=O)NC(=O)[C@H](CC(N)=O)NC1=O,,radioimmunoassay,"Sprague-Dawley rat, plasma","intra-arterial, 5 ng/kg, 5 min",reference: 1 min post-injection,plasma level reduction,14%
CN(C)C(CNC(=O)Nc1cc(C(F)(F)F)ccc1N1CCOCC1)c1ccncc1 (stereo not shown),,,"mouse, serum","intraperitoneal, 240 mg/kg single dose",,serum sodium,144 mmol/L
"O=C(c1ccc(F)cc1)C1CCN(C2Cc3c(cccc3OCC[18F])CC2O)CC1 (single isomer, unassigned; (-))",,,"Sprague-Dawley rat, striatum",5 to 120 min,,tissue uptake,~0.8 %ID/g
COC(=O)C[C@](O)(CCCC(C)(C)OC(C)=O)C(=O)O[C@@H]1C(OC)=C[C@]23CCCN2CCc2cc4c(cc2[C@H]13)OCO4,,,"CD1 mouse, brain","subcutaneous, 1 mg/kg, 8 h, below quantification limit 1.00 ng/mL",,tissue concentration,not detected
CN(C)CC1CCCCC1(O)c1cccc(O)c1 (stereo not shown),human P-glycoprotein,,Caco-2 TC7 monolayer,"50 µM, 3 h, apical pH 7.4, basolateral pH 7.4, added: cyclosporine A 10 µM",,Papp A-to-B,154 ± 10 nm/s
CCOP(=O)(OCC)OCCCCOC(=O)C(C)c1ccc(CC(C)C)cc1 (stereo not shown),,HPLC,"Fischer 344 rats, plasma","diet or gavage, dose not given",,plasma concentration,not detected
C=Cc1c(C)c2cc3nc(c(CC(=O)O)c4[nH]c(cc5nc(cc1[nH]2)C(C)=C5CC)c(C)c4C(=O)O)[C@@H](CCC(=O)NCCCC[C@H](NC(C)=O)C(=O)N[C@@H](Cc1ccccc1)C(=O)N[C@@H](Cc1ccccc1)C(=O)N[C@H](C(=O)N[C@@H](CC(C)C)C(=O)N[C@@H](CCCCN)C(=O)N[C@@H](CO)C(=O)NCC(=O)N[C@@H](CCC(N)=O)C(=O)N[C@@H](Cc1ccc(O)cc1)C(=O)N[C@@H](C)C(=O)N[C@@H](CO)C(=O)N[C@@H](Cc1ccc(O)cc1)C(=O)N[C@@H](Cc1c[nH]cn1)C(=O)N[C@@H](CS)C(=O)N[C@@H](Cc1c[nH]c2ccccc12)C(=O)N[C@@H](CS)C(=O)N[C@@H](Cc1c[nH]c2ccccc12)C(=O)N[C@@H](CCCNC(=N)N)C(=O)N[C@@H](CC(=O)O)C(=O)N1CCC[C@H]1C(=O)NCC(=O)N[C@@H](CCCNC(=N)N)C(=O)N[C@@H](CO)C(=O)NCC(=O)NCC(=O)N[C@@H](CO)C(=O)N[C@@H](CCCCN)C(N)=O)C(C)C)[C@@H]3C,,CCK-8,"HFF, human","1 to 200 µM, 24 h",,cytotoxicity,not toxic
O=c1cc(-c2ccccc2)oc2c(Br)c(O)c(O)c(O)c12,,,"C57BL/6 mouse, plasma","po, 50 mg/kg",,Ctrough,7.2 ± 2.6 ng/mL
CC[C@H](C)[C@@H]1NC(=O)[C@H](CCCCN)NC(=O)[C@H](CCCCN)NC(=O)[C@H](Cc2ccc(O)cc2)NC(=O)[C@H](CC(C)C)NC(=O)[C@@H]2CCCN2C(=O)[C@H](C)NC(=O)CNC(=O)CNC(=O)[C@H](CO)NC(=O)CNC(=O)CNC(=O)[C@H](CO)NC(=O)[C@H](CCC(=O)O)NC(=O)[C@H](CC(C)C)NC(=O)[C@H](CC(C)C)NC(=O)[C@H](CCCCN)NC(=O)[C@H](CCCCN)NC(=O)[C@H]([C@@H](C)CC)NC(=O)[C@H]([C@@H](C)CC)NC(=O)[C@H](CCCCN)NC(=O)[C@H](CCCCN)NC(=O)[C@H](Cc2ccc(O)cc2)NC(=O)[C@H](CC(C)C)NC(=O)[C@@H]2CCCN2C(=O)[C@H](C)NC(=O)CNC(=O)[C@@H](NC(=O)CN)CSSC[C@@H](C(=O)N[C@@H](CCC(=O)O)C(=O)N[C@@H](CO)C(N)=O)NC(=O)[C@H](CC(C)C)NC(=O)[C@H](CCCCN)NC(=O)[C@H](CCCCN)NC(=O)[C@H]([C@@H](C)CC)NC1=O,,hemolysis,uninfected human erythrocytes,1 h,,HC10,14.7 ± 1.3 µM
N=C(N)NCc1ccc(C(=O)NCCCC[C@H](NC(=O)N[C@@H](CCC(=O)O)C(=O)O)C(=O)O)cc1[211At],,,"SCID mouse, PC-3 xenografts, brain",2 h,,tissue uptake,0.1 ± 0.03 %ID/g
O=c1c2cc(Cl)ccc2sc2c(NCc3ccccc3)nc3ccccc3c12,,,BALB/c nude mice,"i.p., 5 mg/kg",,body weight gain,4.32 ± 0.93%
[2H]C([2H])([2H])C([2H])([2H])C([2H])([2H])OC(C(=O)OC1CCNCC1)(c1ccccc1)c1ccccc1,,refers to: C-reactive protein increased,healthy Japanese male,"oral, 12 mg once daily, 16 days",,adverse drug reactions,0%
Cc1ccc(/C=C/C(=O)O)cc1-c1cc2c(cc1C)C(C)(C)CCC2(C)C,,,"Sprague-Dawley rat, male","oral, 100 mg/kg, 6 h, sesame oil vehicle",,blood cholesterol,83 ± 7.5 mg/dL
CCCCCCCC(=O)OC[C@H](NC(=O)[C@H](CO)NC(=O)CN)C(=O)N[C@@H](Cc1ccccc1)C(=O)N[C@@H](CC(C)C)C(=O)N[C@@H](CO)C(=O)N1CCC[C@H]1C(=O)N[C@@H](CCC(=O)O)C(=O)N[C@@H](Cc1cnc[nH]1)C(=O)N[C@@H](CCC(N)=O)C(=O)N[C@@H](CCCNC(=N)N)C(=O)N[C@H](C(=O)N[C@@H](CCC(N)=O)C(=O)N[C@@H](CCC(N)=O)C(=O)N[C@@H](CCCNC(=N)N)C(=O)N[C@@H](CCCCN)C(=O)N[C@@H](CCC(=O)O)C(=O)N[C@@H](CO)C(=O)N[C@@H](CCCCN)C(=O)N[C@@H](CCCCN)C(=O)N1CCC[C@H]1C(=O)N1CCC[C@H]1C(=O)N[C@@H](C)C(=O)N[C@@H](CCCCN)C(=O)N[C@@H](CC(C)C)C(=O)N[C@@H](CCC(N)=O)C(=O)N1CCC[C@H]1C(=O)N[C@@H](CCCNC(=N)N)C(=O)O)C(C)C,,,"human, both sexes, plasma","intravenous infusion, 3 µg/kg/h, 65 min infusion",,mean residence time,0.75 ± 0.0333 h
C/C(=N\OCCCN1CCCCC1)c1ccc(C(F)(F)F)cc1,,,C57BL/6 mouse,"intravenous, 5 mg/kg",,clearance,6.46 ± 1.07 L/h/kg
Cc1ccc(OCC(=O)N(Cc2cccs2)c2ccn[nH]2)cc1,,,"Crl:CD(SD) rat, bred female","oral, 1000 mg/kg/day, mean per litter, developmental toxicity",,corpora lutea count,17.5
CC[C@@H]1C[C@]1(NC(=O)[C@@H]1C[C@@]2(CN1C(=O)[C@@H](NC(=O)[C@@H](NC(=O)[C@@H]1CCCCN1C(C)C)C1CCCCC1)C(C)(C)C)C(C)(C)C21CCC1)C(=O)NS(=O)(=O)N1CCCC1,,refers to: Pain,human,"oral, 10 mg, added: ritonavir 100 mg",,subjects with adverse event,0%
CCN(CC)CCOc1ccc(-c2nnn(Cc3ccc(OC)cc3)c2N)cc1,,,"CD-1 mice, plasma",120 min,,stability,stable
CSCC[C@@H]1NC(=O)[C@@H]2CSSC[C@H](NC(=O)[C@H](CO)NC(=O)[C@H](C)N)C(=O)N[C@@H](CCCNC(=N)N)C(=O)N[C@@H]([C@@H](C)O)C(=O)N3CCC[C@H]3C(=O)N[C@@H](CCCCN)C(=O)N[C@@H](CC(=O)O)C(=O)N[C@H]3CSSC[C@H](NC(=O)[C@H](CCCCN)NC(=O)[C@H](CCCNC(=N)N)NC(=O)[C@H](CC(N)=O)NC1=O)C(=O)N[C@@H](CCCCN)C(=O)N[C@H]1CSSC[C@H](NC(=O)[C@@H]4CCCN4C(=O)[C@H](CC(=O)O)NC(=O)[C@H](C)NC3=O)C(=O)N[C@@H](C)C(=O)N[C@@H](CCCCN)C(=O)N[C@@H](CCC(=O)O)C(=O)N[C@@H]([C@@H](C)O)C(=O)NCC(=O)N[C@@H](CSSC[C@@H](C(N)=O)NC(=O)[C@H](CCCNC(=N)N)NC(=O)[C@H](CC(N)=O)NC1=O)C(=O)N1CCC[C@H]1C(=O)N[C@@H](Cc1ccc(O)cc1)C(=O)NCC(=O)N[C@@H](CCCCN)C(=O)N2,,,"DA rat, pristane-induced arthritis, serum","subcutaneous, 0.1 mg/kg every other day, end of 21-day trial",,osmolality,261 mOsm/kg
O=P1(NCCCl)NCCCO1 (stereo not shown),,,"rat, plasma","intravenous, 10 mg/kg, added: ketoconazole 40 mg/kg oral 50 min before",,AUC(0-inf),0.494 ± 0.0963 µg·h/mL
CC(C)[C@H](NC(=O)CNC(=O)[C@H](CCC(N)=O)NC(=O)[C@H](C)N)C(=O)O,,,healthy male volunteers,"intravenous, 90 mg/kg/h, 2 h, added: LPS 2 ng/kg",,subjects with mild AE,37.5%
CCCCCCCC(=O)NCCCC[C@H](NC(=O)[C@H](Cc1ccccc1)NC(=O)[C@@H](CCCNC(=N)N)NC(=O)[C@@H](N)Cc1ccc(O)cc1)C(N)=O,,,"mouse, CD-1, male, brain","intravenous, 3 mg/kg",,terminal elimination rate constant,0.0064 min⁻¹
CC[C@H](C)C(=O)N1CCC(NC(=O)Nc2ccc(OC(F)(F)F)c(F)c2)CC1,,,"healthy volunteers, both sexes","oral, 8 mg, fed state",,subjects with urinary tract infection,0%
CC(=CCC(O)C(C)=Cc1csc(C)n1)CC=CC(C)C(O)C(C)C(=O)C(C)(C)C(O)CC(=O)O (stereo not shown),,,"human, plasma","concentration not given, cycle 1",reference: compound over KOS-1584,AUC ratio,9.43 ± 4.86%
CC(C)[C@H](NC(=O)CNC(=O)[C@H](CCC(N)=O)NC(=O)[C@H](C)N)C(=O)O,,,human,30 mg/kg single dose,,subjects with serious adverse events,0%
O=P([O-])([O-])Oc1ccc(-c2cc(=S)ss2)cc1.[Na+].[Na+],,HPLC,PBS,"pH 7.4, 25 °C",,solubility,~1.7 mg/mL
CCCCCCCCCCCCC(=O)O.O=C1CCCC2C3CCCN4CCCC(CN12)C34 (stereo not shown),,electrical conductivity,water,"308.15 K, critical micelle concentration",,standard Gibbs energy of micellization,-36.7 kJ/mol
CCCCC[C@@H]1OC(=O)[C@@H](C)N(C)C(=O)[C@H](CCCCC)OC(=O)[C@@H](C)N(C)C(=O)[C@H](CCCCC)OC(=O)[C@@H](C)N(C)C(=O)[C@H](CCCCC)OC(=O)[C@@H](C)N(C)C1=O,,PAMPA,lecithin in n-dodecane membrane,"500 µM, pH 7.4, PBS with TPGS and DMSO",,diffusion,26%
CCCC[C@@H]1NC(=O)[C@H](Cc2ccc(O)cc2)NC(=O)[C@@H]2CCCN2C(=O)[C@H](CC(=O)O)NC(=O)[C@H](C)NC(=O)[C@H](Cc2ccccc2)NC(=O)[C@@H]2CSCCC(=O)N3CN(CN(C3)C(=O)CCSC[C@@H](C(=O)N[C@@H](C)C(N)=O)NC1=O)C(=O)CCSC[C@H](NC(C)=O)C(=O)N[C@@H](CC(C)(C)C)C(=O)N1CCC[C@H]1C(=O)N[C@@H](CCC(=O)O)C(=O)N[C@H](CCCCNC(=O)CCc1cn(CCOCCOCCOCCN(CCOCCOCCOCCC(=O)N[C@H]3CSCCC(=O)N4CN5CN(C4)C(=O)CCSC[C@H](NC(=O)[C@@H](CC(=O)O)NC(=O)[C@H](Cc4cccc6ccccc46)NC(=O)[C@@H]4CCCN4C3=O)C(=O)N[C@@H](CCSC)C(=O)N[C@@H](CCCCNC(=N)N)C(=O)N[C@@H](CC(=O)O)C(=O)N[C@@H](Cc3c[nH]c4ccccc34)C(=O)N[C@@H](CO)C(=O)N[C@@H]([C@@H](C)O)C(=O)N3CCC[C@H]3C(=O)N3C[C@H](O)C[C@H]3C(=O)N[C@@H](Cc3c[nH]c4ccccc34)C(=O)N[C@H](C(N)=O)CSCCC5=O)CCOCCOCCOCCn3cc(CCC(=O)NCCCC[C@H]4NC(=O)[C@H](CCC(=O)O)NC(=O)[C@@H]5CCCN5C(=O)[C@H](CC(C)(C)C)NC(=O)[C@@H](NC(C)=O)CSCCC(=O)N5CN6CN(C5)C(=O)CCSC[C@H](NC(=O)[C@H](Cc5ccc(O)cc5)NC(=O)[C@@H]5CCCN5C4=O)C(=O)N[C@@H](Cc4ccccc4)C(=O)N[C@@H](C)C(=O)N[C@@H](CC(=O)O)C(=O)N4CCC[C@H]4C(=O)N[C@@H](Cc4ccc(O)cc4)C(=O)N[C@@H](CCCC)C(=O)N[C@H](C(=O)N[C@@H](C)C(N)=O)CSCCC6=O)nn3)nn1)C(=O)N1CCC[C@H]1C(=O)N[C@@H](Cc1ccc(O)cc1)C(=O)N2,,,aqueous buffer,pH 7.4,,thermodynamic solubility,20 mg/mL
CN[C@](C)(C[18F])C(=O)O,,,"SCID mouse MDA-MB-468 xenograft, brain","120 min, post injection",,tissue uptake,0.2 ± 0.03 %ID/g
O=C(O)CCn1c(=O)oc2cc(Cl)c(Cl)cc21,,,"rat, plasma","intravenous bolus, 27 mg/kg",,free Cmax,92 µM
